Assay results pooled from the literature.
Each numbered part is a random draw from the data of one study; scales do not carry over between parts. Positions count from the first letter of the parent shown.

Series 1 — method: universal PBM; molecule type: double-stranded DNA, one strand shown; medium: in vitro; tested at: not given; direction: higher = stronger binding
Target: Sal-like protein 4, full length isoform B (SALL4, Homo sapiens, UniProt Q9UJQ4-2, residues 1-616)
Notes: 8-mer, flanks averaged, mean of replicates
Strand	E-score
ACCAAACC	-0.071
AGTTTCTC	-0.0729
CAGTACGA	0.0848
TCTGTAAA	0.18
CACCCTCA	-0.0765
CCCTTCTA	-0.101
ACTCTTAC	0.196
AGAGTGTA	-0.0563
AAGTCCGA	-0.142
CCTCACAG	-0.158
CGCGGGTC	-0.302
GCTGCCAC	-0.259
CGGACACC	-0.345
CAAGTGGA	0.0552
ACGTCGTG	-0.00619
AGGTAATC	0.192
AATGACGA	0.219
TGGCCACA	-0.164
ATTTCACC	0.137
CTCGAAGC	-0.21
GTCTTCAA	0.118
ATTACCAC	0.171
AAACATAG	0.191
ACTTCGTC	-0.0134
GAGAGTCC	-0.22

Series 2 — method: RNA Bind-n-Seq; molecule type: RNA; medium: in vitro; tested at: 1 µM; notes: whole 134-nt RNA, ends assumed; together with: 150 mM KCl; relative to: input library; direction: higher = stronger binding
Target: Ras GTPase-activating protein-binding protein 1, C-terminal RGG region (G3BP1, Homo sapiens, UniProt Q13283)
Sequence of UniProt Q13283 (whole entry, looked up): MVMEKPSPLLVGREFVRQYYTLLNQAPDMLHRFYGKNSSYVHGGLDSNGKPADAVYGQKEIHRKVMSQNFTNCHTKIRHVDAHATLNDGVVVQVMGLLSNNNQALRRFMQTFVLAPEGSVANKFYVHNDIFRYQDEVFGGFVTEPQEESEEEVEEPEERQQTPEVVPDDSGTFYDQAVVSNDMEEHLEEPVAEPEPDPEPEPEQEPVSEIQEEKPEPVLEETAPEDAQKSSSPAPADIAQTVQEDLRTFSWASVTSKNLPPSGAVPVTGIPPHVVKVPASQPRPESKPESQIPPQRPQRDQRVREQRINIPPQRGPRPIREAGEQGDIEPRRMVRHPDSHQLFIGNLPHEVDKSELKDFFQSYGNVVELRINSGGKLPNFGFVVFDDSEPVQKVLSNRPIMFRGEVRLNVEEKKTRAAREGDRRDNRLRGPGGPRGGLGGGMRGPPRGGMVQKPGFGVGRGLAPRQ
All sequences stand within: GGGAGUUCUACAGUCCGACGAUC … UGGAAUUCUCGGGUGUCAAGG
Strand	log2 enrichment
ACCAUGCAGGUGGGCAUCUUUGGGAAGUGGGGCAAGGGGGGGAUAGGGAGGGGGGUAACACUUUGGGAACAGGUGGUCCCGGGUCGUUUC	1.73
AAGUCCUGUGCUACACAUCGUAUGUACCGAAUCGGUUUUUGGUUUGGUUUUUUUGGAAAGUAUUAUGUUACGCCGUUCGGAUCUGCACUU	-1.96
CAAGUCCUGUGCUACACAUCGUAUGUACCGAAUCGGAAAAAGGAAAAAGGUUUGGAAAGUAUUAUGUUACGCCGUUCGGAUCUGCACUUC	-2.08
CACAGACAACACGCACCCACACAGACACAGAGGGAAGGGGUUGGGUUGGGGACAGGGUGCACAGCAGGGCGGGGUAGGACCCCAGCCCCU	-0.305
UCCUCAAGUCCUGUGCUACACAUCGUAUGUACCGAAUCGGUGGAGGAAAGGAAAGUAUUAUGUUACGCCGUUCGGAUCUGCACUUCCAGC	-1.06
UGGUGGACCCGCAGCAGCUGGGCAUGUUCACGGAGGGCGAGCUGAUGUCGGUGGGUAUGGACACGUUCAUCCACCGCAUCGACUCCACCG	-1.64
CUGUGCUACACAUCGUAUGUACCGAAUCGGGGUUUUUGGGGAAAAAAAGGGGAAAAAGGGGAAAGUAUUAUGUUACGCCGUUCGGAUCUG	0.129
AAGUCCUGUGCUACACAUCGUAUGUACCGAAUCGGGGUGGGGAGGGGUUUUUGGGGAAAGUAUUAUGUUACGCCGUUCGGAUCUGCACUU	2.04
UCCUGUGCUACACAUCGUAUGUACCGAAUCGGGCCCCCGGGGCCCCCGGGCCCCCGGGGAAAGUAUUAUGUUACGCCGUUCGGAUCUGCA	-1.87

Series 3 — target: CCND1, cyclin fold, Cln2 fusion (human); method: yeast growth competition, sequencing; medium: yeast; notes: weak parent motif; relative to: not given; direction: higher = stronger binding
Parent: SLBP docking peptide (human); ARYKRKLLINDFG; partner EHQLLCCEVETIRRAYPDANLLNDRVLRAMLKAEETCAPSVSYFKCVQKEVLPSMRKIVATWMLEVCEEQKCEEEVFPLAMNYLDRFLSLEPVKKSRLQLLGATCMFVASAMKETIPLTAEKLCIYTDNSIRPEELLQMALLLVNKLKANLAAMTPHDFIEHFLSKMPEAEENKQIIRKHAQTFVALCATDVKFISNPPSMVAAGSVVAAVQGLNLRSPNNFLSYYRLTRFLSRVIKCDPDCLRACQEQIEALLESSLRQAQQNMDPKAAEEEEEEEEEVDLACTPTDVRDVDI
Substitution	normalised enrichment score
L7H	-0.697
I9H	0.165
K6V	0.416
N10L	0.937
K6W	0.947
K6L	0.433
R5K L8F	0.0926
A1G	0.0981
R5A L7A	-0.164
L8C	-0.452
D11F	0.294
K4M	0.292
N10Y	0.298
G13R	-0.475
Y3P	-0.354
A1W	-0.108
K4Y	-0.226
L7G	-0.219
K6T	-0.0191
Y3S	0.978
R5C	0.527
R2D	0.45

Series 4 — target: XBP1, bZIP domain (human); method: DHFR protein complementation; medium: yeast; relative to: wild-type JUN-FOS pair; direction: higher = stronger binding
Notes: single substitutions, most at no-binding floor
Parent: JUN, bZIP domain (human); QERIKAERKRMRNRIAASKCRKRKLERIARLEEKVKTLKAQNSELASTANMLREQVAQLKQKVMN; partner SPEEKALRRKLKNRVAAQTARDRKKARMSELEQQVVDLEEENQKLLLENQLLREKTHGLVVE
Substitution	binding fitness
M51S	-0.798 natural log
K39S	-1.16 natural log
M51V	-0.718 natural log
V35Y	-1.35 natural log
L38G	-1.45 natural log
N42D	-1.49 natural log
K36D	-1.13 natural log
L38N	-1.42 natural log
Q58P	-1.31 natural log
A46G	-1.39 natural log
R53M	-1.47 natural log
L38S	-1.51 natural log
N42S	-1.5 natural log
N42K	-1.31 natural log
A49P	-1.43 natural log
S47K	-0.354 natural log
A40D	-0.853 natural log
N42T	-1.49 natural log
T48P	-1.49 natural log
L38F	-1.44 natural log
N42E	-1.44 natural log
L45R	-1.46 natural log
L52Q	-1.23 natural log

Series 5 — method: DHFR PCA, deep sequencing; medium: yeast; together with: (+)-ABA 200 µM; relative to: wild-type fitted maximum; direction: higher = stronger binding
Target: ABI1, truncated, D143A, DHFR fusion (Arabidopsis thaliana)
Notes: methotrexate growth selection, single substitutions
Parent: PYL1, truncated, DHFR fusion (Arabidopsis thaliana); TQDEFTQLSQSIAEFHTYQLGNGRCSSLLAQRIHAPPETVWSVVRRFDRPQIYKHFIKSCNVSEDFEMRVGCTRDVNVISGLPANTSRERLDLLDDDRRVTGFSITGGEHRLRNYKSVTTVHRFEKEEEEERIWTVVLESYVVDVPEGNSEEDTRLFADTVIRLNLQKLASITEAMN
Substitution	relative binding score [%]
E174T	89.7
S27M	55.5
N85M	98.2
S87H	10.5
V121M	55.3
N165E	2.32
K126P	110
D65W	80.3
V78A	70.2
Y141V	-5.42
E125K	109
L29W	50.9

Single results of other studies
Molecule	target	assay	system	conditions	scale	endpoint	result
PhoQ, residues 284 288 289 292 302 303 SLANKL	PhoP, residues 12 14 15 18 19 SEGLL (Escherichia coli, UniProt P23836)	Sort-seq, refers to: YFP reporter	E. coli	PhoQ-PhoP variant library, together with: 10 µM Mg2+	relative to: high Mg2+ state, higher = stronger signaling	fold induction	14.6

A few entries again (series 4):
Substitution	binding fitness
T48P	-1.49 natural log
K39S	-1.16 natural log
L38F	-1.44 natural log
N42D	-1.49 natural log
L52Q	-1.23 natural log
S47K	-0.354 natural log
M51V	-0.718 natural log
